{"data": "Results of several laboratories", "cell line": "HeLa", "note": "Lines come from different studies, so protocols differ. ± gives the spread as reported."}
{"Structure (SMILES)": "O[C@H](COc1ccccc1)Cn1c2ccc(Br)cc2c2cc(Br)ccc21", "assay": "CellTiter-Glo", "setting": "48 h", "quantity": "GI50", "result": "10.3 µM"}
{"Structure (SMILES)": "CC=C(C)C(=O)OC1C(O)C2OC(COC(=O)CCCCCCCCCC(CCCCC)OC3OC(C)C(OC(C)=O)C(O)C3O2)C1OC(=O)C=Cc1ccccc1 (stereo not drawn)", "assay": "cytotoxicity", "quantity": "IC50", "result": "0.0149 µM"}
{"Structure (SMILES)": "CC[C@H](C)[C@@H]1NC(=O)[C@H](C)NC(=O)[C@H](C)NC(=O)[C@H]([C@@H](C)O)NC(=O)[C@H](Cc2ccccc2)NC(=O)[C@@H]2CSSC[C@@H]3NC(=O)[C@H](C(C)C)NC(=O)[C@H](CCCCN)NC(=O)[C@H](CO)NC(=O)[C@H](CCCCN)NC(=O)[C@@H]4CSSC[C@H](NC(=O)[C@H](C)NC(=O)[C@H](CCC(=O)O)NC(=O)CNC(=O)[C@H](CSSC[C@H](NC(=O)CNC1=O)C(=O)N[C@@H](CO)C(=O)N4)NC(=O)[C@@H]1CCCN1C(=O)[C@H](Cc1ccccc1)NC(=O)CNC(=O)[C@H](CC(N)=O)NC(=O)[C@H](CCCCN)NC(=O)[C@H](Cc1ccc(O)cc1)NC3=O)C(=O)N[C@@H](C(C)C)C(=O)N[C@@H](Cc1ccc(O)cc1)C(=O)N[C@@H](CC(C)C)C(=O)N1CCC[C@H]1C(=O)N2", "assay": "resazurin", "setting": "24 h", "quantity": "CC50", "result": "4.15 ± 2.88 µM"}
{"Structure (SMILES)": "CC(=O)N[C@@H](CC(C)C)C(=O)N[C@@H](CC(C)C)C(=O)N[C@@H](CS)C(=O)N[C@@H](CO)C(=O)N[C@H](C(=O)N1CCC[C@H]1C(=O)N[C@@H](CC(N)=O)C(=O)NCC(=O)N[C@@H](CC(C)C)C(=O)O)[C@@H](C)OP(=O)(O)O", "setting": "30 µM, 24 h", "quantity": "viability", "result": "57%"}
{"Structure (SMILES)": "CN(C)c1ccc2c(c1)Oc1cc(N(C)C)ccc1C21OC(=O)c2cc(C(=O)NCCCC[C@H](NC(=O)[C@@H](N)CSSC[C@H](N)C(=O)N[C@@H](CCCCNC(=O)c3ccc4c(c3)C(=O)OC43c4ccc(N(C)C)cc4Oc4cc(N(C)C)ccc43)C(=O)N[C@@H](CCCNC(=N)N)C(=O)N[C@@H](CCCNC(=N)N)C(=O)N[C@@H](CCCNC(=N)N)C(=O)N[C@@H](CCCNC(=N)N)C(=O)N[C@@H](CCCNC(=N)N)C(=O)N[C@@H](CCCNC(=N)N)C(=O)N[C@@H](CCCNC(=N)N)C(=O)N[C@@H](CCCNC(=N)N)C(=O)NCC(N)=O)C(=O)N[C@@H](CCCNC(=N)N)C(=O)N[C@@H](CCCNC(=N)N)C(=O)N[C@@H](CCCNC(=N)N)C(=O)N[C@@H](CCCNC(=N)N)C(=O)N[C@@H](CCCNC(=N)N)C(=O)N[C@@H](CCCNC(=N)N)C(=O)N[C@@H](CCCNC(=N)N)C(=O)N[C@@H](CCCNC(=N)N)C(=O)NCC(N)=O)ccc21", "setting": "5 µM, 1 h", "quantity": "SYTOX Blue-positive cells", "result": "13%"}
{"Structure (SMILES)": "CC[C@H](C)[C@@H]1NC(=O)[C@H](C)NC(=O)[C@H](C)NC(=O)[C@H]([C@@H](C)O)NC(=O)[C@H](Cc2ccccc2)NC(=O)[C@@H]2CSSC[C@@H]3NC(=O)[C@H](C(C)C)NC(=O)[C@H](CCCCN)NC(=O)[C@H](CO)NC(=O)[C@H](CCCCN)NC(=O)[C@@H]4CSSC[C@H](NC(=O)[C@H](CO)NC(=O)[C@H](CCC(=O)O)NC(=O)CNC(=O)[C@H](CSSC[C@H](NC(=O)CNC1=O)C(=O)N[C@@H](CO)C(=O)N4)NC(=O)[C@@H]1CCCN1C(=O)[C@H](Cc1ccccc1)NC(=O)CNC(=O)[C@H](CC(N)=O)NC(=O)[C@H](CCCCN)NC(=O)[C@H](C)NC3=O)C(=O)N[C@@H](C(C)C)C(=O)N[C@@H](Cc1ccc(O)cc1)C(=O)N[C@@H](CC(C)C)C(=O)N1CCC[C@H]1C(=O)N2", "assay": "resazurin", "setting": "24 h", "quantity": "CC50", "result": "1.83 ± 0.11 µM"}
{"Structure (SMILES)": "CCCCCCCCCCCCCC(=O)N[C@@H](CCCCN)C(=O)N[C@@H](CCCCN)C(N)=O", "assay": "MTS", "setting": "100 µM", "quantity": "cytotoxicity", "result": "toxic"}
{"Structure (SMILES)": "CC[C@H](C)[C@@H]1NC(=O)[C@H](C)NC(=O)[C@H](C)NC(=O)[C@H]([C@@H](C)O)NC(=O)[C@H](Cc2ccccc2)NC(=O)[C@@H]2CSSC[C@@H]3NC(=O)[C@H](C(C)C)NC(=O)[C@H](CCCCN)NC(=O)[C@H](CO)NC(=O)[C@H](CCCCN)NC(=O)[C@@H]4CSSC[C@H](NC(=O)[C@H](CO)NC(=O)[C@H](CCC(=O)O)NC(=O)CNC(=O)[C@H](CSSC[C@H](NC(=O)CNC1=O)C(=O)N[C@@H](CO)C(=O)N4)NC(=O)[C@@H]1CCCN1C(=O)[C@H](Cc1ccccc1)NC(=O)CNC(=O)[C@H](CC(N)=O)NC(=O)[C@H](CCCCN)NC(=O)[C@H](Cc1ccc(O)cc1)NC3=O)C(=O)N[C@@H](C(C)C)C(=O)N[C@@H](C)C(=O)N[C@@H](CC(C)C)C(=O)N1CCC[C@H]1C(=O)N2", "assay": "resazurin", "setting": "24 h", "quantity": "CC50", "result": "4.27 ± 0.34 µM"}
{"Structure (SMILES)": "O=c1c(Br)c2oc3c(CN(Cc4ccccn4)Cc4cnccn4)c(O)ccc3nc-2c2ccccc12", "assay": "MTT", "setting": "5 µM, 24 h", "scale": "reference: DMSO", "quantity": "viability", "result": "88 ± 5%"}
{"Structure (SMILES)": "CC[C@H](C)[C@@H]1NC(=O)[C@H](C)NC(=O)[C@H](C)NC(=O)[C@H]([C@@H](C)O)NC(=O)[C@H](Cc2ccccc2)NC(=O)[C@@H]2CSSC[C@@H]3NC(=O)[C@H](C(C)C)NC(=O)[C@H](CCCCN)NC(=O)[C@H](C)NC(=O)[C@H](CCCCN)NC(=O)[C@@H]4CSSC[C@H](NC(=O)[C@H](CO)NC(=O)[C@H](CCC(=O)O)NC(=O)CNC(=O)[C@H](CSSC[C@H](NC(=O)CNC1=O)C(=O)N[C@@H](CO)C(=O)N4)NC(=O)[C@@H]1CCCN1C(=O)[C@H](Cc1ccccc1)NC(=O)CNC(=O)[C@H](CC(N)=O)NC(=O)[C@H](CCCCN)NC(=O)[C@H](Cc1ccc(O)cc1)NC3=O)C(=O)N[C@@H](C(C)C)C(=O)N[C@@H](Cc1ccc(O)cc1)C(=O)N[C@@H](CC(C)C)C(=O)N1CCC[C@H]1C(=O)N2", "assay": "resazurin", "setting": "24 h", "quantity": "CC50", "result": "0.8 ± 0.03 µM"}
{"Structure (SMILES)": "N=C(N)NCCC[C@@H]1NC(=O)[C@H](Cc2csc3ccccc23)NC(=O)[C@@H](Cc2ccccc2)NC(=O)[C@H](Cc2ccccc2)NC(=O)[C@H](CCC(=O)NCCOCCOCC(=O)N[C@@H](CCCCNC(=O)c2ccc3c(c2)C(=O)OC32c3ccc4cc(O)ccc4c3Oc3c2ccc2cc(O)ccc32)C(N)=O)NC(=O)[C@@H](CCCNC(=N)N)NC(=O)[C@H](CCCNC(=N)N)NC(=O)[C@@H](CCCNC(=N)N)NC1=O", "assay": "flow cytometry", "setting": "5.0 µM, 2 h, 10% FBS", "scale": "reference: CPP12", "quantity": "cellular uptake", "result": "98 ± 11%"}
{"Structure (SMILES)": "O=C(Cc1ccc2ccccc2c1)N[C@H](Cc1ccccc1)C(=O)N[C@H](Cc1ccccc1)C(=O)N[C@H](Cc1ccc(OP(=O)(O)O)cc1)C(=O)O", "assay": "MTT", "setting": "400 µM, 24 h", "quantity": "viability", "result": "~10%"}
{"note": "For quick reference, copied from above:"}
{"Structure (SMILES)": "CC[C@H](C)[C@@H]1NC(=O)[C@H](C)NC(=O)[C@H](C)NC(=O)[C@H]([C@@H](C)O)NC(=O)[C@H](Cc2ccccc2)NC(=O)[C@@H]2CSSC[C@@H]3NC(=O)[C@H](C(C)C)NC(=O)[C@H](CCCCN)NC(=O)[C@H](CO)NC(=O)[C@H](CCCCN)NC(=O)[C@@H]4CSSC[C@H](NC(=O)[C@H](CO)NC(=O)[C@H](CCC(=O)O)NC(=O)CNC(=O)[C@H](CSSC[C@H](NC(=O)CNC1=O)C(=O)N[C@@H](CO)C(=O)N4)NC(=O)[C@@H]1CCCN1C(=O)[C@H](Cc1ccccc1)NC(=O)CNC(=O)[C@H](CC(N)=O)NC(=O)[C@H](CCCCN)NC(=O)[C@H](Cc1ccc(O)cc1)NC3=O)C(=O)N[C@@H](C(C)C)C(=O)N[C@@H](C)C(=O)N[C@@H](CC(C)C)C(=O)N1CCC[C@H]1C(=O)N2", "assay": "resazurin", "setting": "24 h", "quantity": "CC50", "result": "4.27 ± 0.34 µM"}
